Measurements collected from several papers.
Parts stem from different laboratories: compare values within a part only.
Chain of UniProt P42685 (whole entry, looked up): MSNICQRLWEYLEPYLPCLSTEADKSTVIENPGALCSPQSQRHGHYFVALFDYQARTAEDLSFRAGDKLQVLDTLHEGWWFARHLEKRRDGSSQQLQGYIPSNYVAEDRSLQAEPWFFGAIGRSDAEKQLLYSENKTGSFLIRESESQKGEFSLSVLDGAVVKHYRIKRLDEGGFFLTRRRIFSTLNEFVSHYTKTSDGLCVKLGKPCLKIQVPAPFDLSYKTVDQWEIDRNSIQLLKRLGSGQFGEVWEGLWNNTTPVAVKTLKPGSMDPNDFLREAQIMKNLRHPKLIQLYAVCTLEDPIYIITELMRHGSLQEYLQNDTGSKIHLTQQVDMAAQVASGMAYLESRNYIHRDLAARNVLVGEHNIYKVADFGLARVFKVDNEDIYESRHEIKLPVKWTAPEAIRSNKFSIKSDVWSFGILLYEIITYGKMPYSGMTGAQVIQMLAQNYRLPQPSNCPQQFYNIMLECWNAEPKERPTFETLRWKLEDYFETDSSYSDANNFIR
Chain of UniProt P54760 (whole entry, looked up): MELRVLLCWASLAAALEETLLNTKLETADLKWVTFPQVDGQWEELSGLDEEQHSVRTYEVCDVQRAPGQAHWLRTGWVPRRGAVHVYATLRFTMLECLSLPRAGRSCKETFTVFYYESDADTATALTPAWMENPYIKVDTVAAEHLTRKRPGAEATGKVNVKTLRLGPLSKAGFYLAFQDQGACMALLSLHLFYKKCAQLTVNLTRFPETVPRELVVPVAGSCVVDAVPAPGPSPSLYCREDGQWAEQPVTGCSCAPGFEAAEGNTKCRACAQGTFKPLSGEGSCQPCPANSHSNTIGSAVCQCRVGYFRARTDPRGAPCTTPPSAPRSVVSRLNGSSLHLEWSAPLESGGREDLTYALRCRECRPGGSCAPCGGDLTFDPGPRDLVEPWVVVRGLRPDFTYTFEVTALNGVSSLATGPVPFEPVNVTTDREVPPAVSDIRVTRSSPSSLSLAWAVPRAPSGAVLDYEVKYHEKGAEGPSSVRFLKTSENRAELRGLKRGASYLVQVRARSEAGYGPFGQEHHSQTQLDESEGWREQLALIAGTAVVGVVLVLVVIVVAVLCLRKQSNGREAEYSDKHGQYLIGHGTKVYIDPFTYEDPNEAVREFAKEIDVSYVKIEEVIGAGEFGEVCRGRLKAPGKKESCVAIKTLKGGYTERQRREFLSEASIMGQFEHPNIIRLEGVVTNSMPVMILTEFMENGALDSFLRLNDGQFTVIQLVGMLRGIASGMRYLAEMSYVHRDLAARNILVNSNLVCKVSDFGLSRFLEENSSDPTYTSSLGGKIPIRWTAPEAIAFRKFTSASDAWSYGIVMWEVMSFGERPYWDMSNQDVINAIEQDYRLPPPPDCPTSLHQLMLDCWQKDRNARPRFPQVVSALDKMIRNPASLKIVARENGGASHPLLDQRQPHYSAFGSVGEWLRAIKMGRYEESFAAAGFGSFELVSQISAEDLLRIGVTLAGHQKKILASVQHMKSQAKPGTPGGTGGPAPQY
Chain of UniProt P36507 (whole entry, looked up): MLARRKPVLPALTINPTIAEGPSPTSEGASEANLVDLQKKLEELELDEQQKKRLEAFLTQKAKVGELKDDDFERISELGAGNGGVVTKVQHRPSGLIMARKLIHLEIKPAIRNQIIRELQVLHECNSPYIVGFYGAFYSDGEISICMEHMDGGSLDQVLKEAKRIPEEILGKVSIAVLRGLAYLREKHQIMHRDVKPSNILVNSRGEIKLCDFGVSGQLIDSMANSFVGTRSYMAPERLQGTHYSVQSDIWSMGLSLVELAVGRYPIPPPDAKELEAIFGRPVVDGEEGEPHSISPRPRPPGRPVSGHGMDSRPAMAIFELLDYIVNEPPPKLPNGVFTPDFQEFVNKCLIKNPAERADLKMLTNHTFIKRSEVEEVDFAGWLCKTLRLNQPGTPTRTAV
Chain of UniProt Q99683 (whole entry, looked up): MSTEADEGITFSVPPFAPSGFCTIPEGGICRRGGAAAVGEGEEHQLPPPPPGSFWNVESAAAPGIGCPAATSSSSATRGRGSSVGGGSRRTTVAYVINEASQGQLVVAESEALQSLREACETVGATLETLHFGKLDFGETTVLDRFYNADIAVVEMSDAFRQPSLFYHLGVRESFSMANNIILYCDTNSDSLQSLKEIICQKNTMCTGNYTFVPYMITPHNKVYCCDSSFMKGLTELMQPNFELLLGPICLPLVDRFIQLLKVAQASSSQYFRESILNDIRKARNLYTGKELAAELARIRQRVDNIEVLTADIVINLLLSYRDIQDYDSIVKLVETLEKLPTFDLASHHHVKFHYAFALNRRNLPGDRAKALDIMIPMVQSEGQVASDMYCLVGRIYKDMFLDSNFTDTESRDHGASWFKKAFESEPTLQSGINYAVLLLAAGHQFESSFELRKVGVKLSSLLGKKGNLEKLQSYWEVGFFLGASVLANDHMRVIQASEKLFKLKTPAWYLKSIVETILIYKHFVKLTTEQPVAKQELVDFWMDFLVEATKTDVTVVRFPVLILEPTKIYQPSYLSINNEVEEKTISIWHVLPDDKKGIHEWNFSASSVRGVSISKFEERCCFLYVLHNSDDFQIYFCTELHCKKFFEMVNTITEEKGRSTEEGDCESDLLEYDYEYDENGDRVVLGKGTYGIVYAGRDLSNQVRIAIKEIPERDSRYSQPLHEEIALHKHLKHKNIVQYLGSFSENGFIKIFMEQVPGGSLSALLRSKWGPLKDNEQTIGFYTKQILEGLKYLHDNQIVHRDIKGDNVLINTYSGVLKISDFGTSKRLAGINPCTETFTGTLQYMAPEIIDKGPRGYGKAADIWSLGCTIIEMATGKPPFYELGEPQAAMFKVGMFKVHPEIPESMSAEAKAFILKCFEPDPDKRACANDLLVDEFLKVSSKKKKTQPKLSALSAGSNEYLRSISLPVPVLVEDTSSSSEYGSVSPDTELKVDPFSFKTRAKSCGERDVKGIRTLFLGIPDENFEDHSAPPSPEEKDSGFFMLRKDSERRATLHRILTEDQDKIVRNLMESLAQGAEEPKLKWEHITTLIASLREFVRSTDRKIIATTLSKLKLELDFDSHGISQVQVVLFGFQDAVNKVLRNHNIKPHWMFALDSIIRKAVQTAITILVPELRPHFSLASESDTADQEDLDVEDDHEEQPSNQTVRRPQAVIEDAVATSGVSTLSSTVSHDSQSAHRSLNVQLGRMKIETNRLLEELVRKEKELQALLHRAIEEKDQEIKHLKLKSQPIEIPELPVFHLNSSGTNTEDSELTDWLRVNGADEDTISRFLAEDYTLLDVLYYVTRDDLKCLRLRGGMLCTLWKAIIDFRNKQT
Chain of UniProt P07947 (whole entry, looked up): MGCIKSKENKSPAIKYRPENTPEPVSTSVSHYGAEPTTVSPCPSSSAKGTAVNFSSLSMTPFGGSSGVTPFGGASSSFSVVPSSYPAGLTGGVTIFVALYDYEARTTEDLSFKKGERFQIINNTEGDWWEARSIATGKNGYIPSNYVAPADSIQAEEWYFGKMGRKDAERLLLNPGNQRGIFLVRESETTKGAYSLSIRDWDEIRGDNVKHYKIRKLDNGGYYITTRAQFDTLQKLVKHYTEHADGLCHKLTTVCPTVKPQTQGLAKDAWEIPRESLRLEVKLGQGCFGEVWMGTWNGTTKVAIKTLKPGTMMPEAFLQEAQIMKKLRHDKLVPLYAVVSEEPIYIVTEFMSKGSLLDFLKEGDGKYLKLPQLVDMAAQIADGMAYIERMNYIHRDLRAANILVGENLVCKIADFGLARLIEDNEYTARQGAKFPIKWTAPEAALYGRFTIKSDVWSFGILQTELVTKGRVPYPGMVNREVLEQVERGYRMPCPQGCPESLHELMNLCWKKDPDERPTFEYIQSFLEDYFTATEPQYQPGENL

Sample 1
SMILES: C=CCc1ccc(O)c(-c2cc(CC=C)ccc2O)c1
Effect on: chloride current
Technique: inside-out patch clamp
Tested at: 30 µM
ANO1 del476-501/E659A: Anoctamin-1 (ANO1, Homo sapiens, UniProt Q5XXA6, del476-501/E659A)
Chain of UniProt Q5XXA6 (whole entry, unmodified, looked up): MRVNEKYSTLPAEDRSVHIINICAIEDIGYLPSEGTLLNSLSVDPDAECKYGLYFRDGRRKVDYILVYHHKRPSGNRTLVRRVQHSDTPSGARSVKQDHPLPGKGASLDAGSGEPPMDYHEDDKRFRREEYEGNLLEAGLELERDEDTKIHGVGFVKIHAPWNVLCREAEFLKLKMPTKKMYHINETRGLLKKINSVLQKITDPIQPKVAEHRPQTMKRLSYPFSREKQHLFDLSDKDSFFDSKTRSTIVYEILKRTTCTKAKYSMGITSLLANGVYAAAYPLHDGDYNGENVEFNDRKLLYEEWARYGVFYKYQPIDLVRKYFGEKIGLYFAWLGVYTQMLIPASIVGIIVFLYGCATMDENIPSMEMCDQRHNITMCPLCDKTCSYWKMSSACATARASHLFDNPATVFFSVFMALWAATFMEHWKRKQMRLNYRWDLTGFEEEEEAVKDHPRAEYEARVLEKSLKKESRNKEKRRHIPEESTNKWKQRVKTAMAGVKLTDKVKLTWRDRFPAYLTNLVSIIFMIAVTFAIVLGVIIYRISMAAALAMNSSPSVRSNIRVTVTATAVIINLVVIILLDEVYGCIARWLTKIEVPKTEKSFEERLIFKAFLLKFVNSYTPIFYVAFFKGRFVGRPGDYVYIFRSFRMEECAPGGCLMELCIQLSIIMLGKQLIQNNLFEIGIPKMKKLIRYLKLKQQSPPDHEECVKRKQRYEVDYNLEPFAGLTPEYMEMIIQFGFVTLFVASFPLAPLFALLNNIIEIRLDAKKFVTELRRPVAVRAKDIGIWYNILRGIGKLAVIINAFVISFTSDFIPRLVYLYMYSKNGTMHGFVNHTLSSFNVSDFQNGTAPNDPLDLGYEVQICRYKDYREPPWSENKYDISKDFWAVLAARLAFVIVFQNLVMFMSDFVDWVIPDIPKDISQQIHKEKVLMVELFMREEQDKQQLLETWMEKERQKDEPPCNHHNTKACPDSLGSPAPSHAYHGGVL
target | mode | setting | normalized current
TMEM16A (human) K603A/E623A |  | membrane voltage 0 mV | -0.0005
ANO1 del476-501/E659A | inhibitor | E633A mutant at -80 mV | -0.855
ANO1 del476-501/E659A |  | membrane voltage 20 mV | 0.166
Anoctamin-1 (ANO1, Homo sapiens, UniProt Q5XXA6, del476-501/E659A/K629A) |  | membrane voltage 40 mV | 0.284

Sample 2
Compound: CN([C@@H](Cc1ccc(OS(=O)(=O)c2cccc3cnccc23)cc1)C(=O)N1CCN(c2ccccc2)CC1)S(=O)(=O)c1cccc2cnccc12
Effect on: enzyme activity
Mode: inhibitor
Tested at: 0.5 µM
Reference: control
target | remaining activity
FRK (Homo sapiens, UniProt P42685) | 101%
MAPK3 (Homo sapiens, UniProt P27361) | 90.6%
LCK (Homo sapiens, UniProt P06239) | 97.5%
ULK2 (Homo sapiens, UniProt Q8IYT8) | 106%
MAP3K5 (Homo sapiens, UniProt Q99683) | 99.2%
MAPKAPK2 (Homo sapiens, UniProt P49137) | 103%
NEK1 (Homo sapiens, UniProt Q96PY6) | 102%
CSNK1G2 (Homo sapiens, UniProt P78368) | 100%
MAP2K2 (Homo sapiens, UniProt P36507) | 119%
EPHA3 (Homo sapiens, UniProt P29320) | 102%
ACVR1B (Homo sapiens, UniProt P36896) | 98.7%
NEK6 (Homo sapiens, UniProt Q9HC98) | 101%
MST1R (Homo sapiens, UniProt Q04912) | 94.4%

Sample 3
Species: human
Matrix: microsomes or S9
Tested at: 2 µM
Time: 0.5 h
Compound | remaining compound [%]
Cc1ccc(N(C(C)C(=O)N(C)C)S(C)(=O)=O)cc1 (stereo not shown) | 53.8
CN1C(=O)C(c2c(-c3ccc(Br)cc3)[nH]c3[nH]c(=O)[nH]c(=O)c23)c2ccccc21 (stereo not shown) | 46
CN(C)CCn1c(=N)n(CC(O)c2ccc(Cl)c(Cl)c2)c2ccccc21 (stereo not shown) | 68.5
CCC(Oc1ccccc1C)C(=O)Nc1ccccc1C(=O)NC (stereo not shown) | 9.55
CN1CCN(Cc2ccc(-c3cn(C(=O)OC(C)(C)C)nc3C3CCCN(C(=O)OC(C)(C)C)C3)cc2)CC1 (stereo not shown) | 3.43
O=c1c2cnn(-c3ccc(F)cc3)c2ncn1Cc1cccnc1 | > 100
CC(C)(C)c1n[nH]c(C2CN(C(=O)C3CCOC3)CCO2)n1 (stereo not shown) | 42

Sample 4
SMILES: C[C@H](c1ccnc(Nc2nc3ccc(-c4cc(N(C)C)ncn4)cc3[nH]2)c1)N1CCN(C(=O)CC(F)(F)F)CC1
Effect on: cell-free assay
Technique: competition with immobilised ligand
Tested at: 0.1 µM
target | remaining binding [%]
FRK (Homo sapiens, UniProt P42685) | 92
FLT3 (Homo sapiens, UniProt P36888, D835Y) | 41
DSTYK (Homo sapiens, UniProt Q6XUX3) | 100
ROS1 (Homo sapiens, UniProt P08922) | 100
SGK1 (Homo sapiens, UniProt O00141) | 94
EPHB4 (Homo sapiens, UniProt P54760) | 100
YES1 (Homo sapiens, UniProt P07947) | 92
FYN (Homo sapiens, UniProt P06241) | 79
LYN (Homo sapiens, UniProt P07948) | 97
LTK (Homo sapiens, UniProt P29376) | 100

A few entries again (sample 1):
target | mode | setting | normalized current
Anoctamin-1 (ANO1, Homo sapiens, UniProt Q5XXA6, del476-501/E659A/K629A) |  | membrane voltage 40 mV | 0.284
ANO1 del476-501/E659A |  | membrane voltage 20 mV | 0.166
TMEM16A (human) K603A/E623A |  | membrane voltage 0 mV | -0.0005
ANO1 del476-501/E659A | inhibitor | E633A mutant at -80 mV | -0.855
